Results gathered from unrelated publications.
Numbered parts are unrelated; each lists some results of a single study. “And” joins repeats or separate records; there may be more than shown.
UniProt Q92985, sequence (whole entry, unmodified, looked up): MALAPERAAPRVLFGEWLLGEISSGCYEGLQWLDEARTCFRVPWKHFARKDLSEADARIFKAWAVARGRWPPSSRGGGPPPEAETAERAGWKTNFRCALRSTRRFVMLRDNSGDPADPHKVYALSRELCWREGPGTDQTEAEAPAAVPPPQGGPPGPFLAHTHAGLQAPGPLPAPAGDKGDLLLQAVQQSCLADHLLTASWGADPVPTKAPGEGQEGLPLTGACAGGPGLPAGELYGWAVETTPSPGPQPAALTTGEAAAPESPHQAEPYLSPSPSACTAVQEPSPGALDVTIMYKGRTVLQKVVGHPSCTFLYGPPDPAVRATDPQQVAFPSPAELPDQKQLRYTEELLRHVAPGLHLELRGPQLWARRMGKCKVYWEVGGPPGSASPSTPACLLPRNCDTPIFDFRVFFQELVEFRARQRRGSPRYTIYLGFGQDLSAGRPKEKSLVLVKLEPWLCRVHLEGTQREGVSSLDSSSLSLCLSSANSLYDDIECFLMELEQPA

Set 1 — method: protein binding microarray; form: double-stranded DNA, one strand shown; matrix: in vitro; tested at: not given; reference: not given; reading: higher = stronger binding
Target: Histone acetyltransferase KAT6A, both winged helices, GST fusion (KAT6A, Homo sapiens, UniProt Q92794, residues 1-181)
Setting: 8-mer, flanks averaged, mean of 2 arrays, mostly near background
Target sequence (chain): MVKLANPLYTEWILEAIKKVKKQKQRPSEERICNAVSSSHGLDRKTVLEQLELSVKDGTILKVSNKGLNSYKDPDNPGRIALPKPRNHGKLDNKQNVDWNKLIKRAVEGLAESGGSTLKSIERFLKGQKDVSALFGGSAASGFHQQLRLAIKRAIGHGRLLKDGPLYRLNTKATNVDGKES
Sequence | E-score
AACTCACG | -0.0478
AAGAGGGG | -0.218
CGTTATCA | 0.0495
AAATAGAA | -0.00193

Set 2 — method: universal PBM; form: double-stranded DNA, one strand shown; matrix: in vitro; tested at: not given; reading: higher = stronger binding
Target: Sal-like protein 4, full length isoform B (SALL4, Homo sapiens, UniProt Q9UJQ4-2, residues 1-616)
Setting: 8-mer, flanks averaged, mean of replicates
Sequence | E-score
CCAAATAC | -0.0687
CGTAGACA | -0.0406
AGATGATG | 0.156
TCTCTTCA | -0.0167
ATGGCCAC | -0.212

Mixed results
IRF3 S386D/S396D/S398D/S402D/T404D/S405D full length, phosphomimetic: Interferon regulatory factor 3, full length, phosphomimetic (IRF3, Homo sapiens, UniProt Q14653, residues 1-427, S386D/S396D/S398D/S402D/T404D/S405D)
UniProt Q14653, sequence (whole entry, unmodified, looked up): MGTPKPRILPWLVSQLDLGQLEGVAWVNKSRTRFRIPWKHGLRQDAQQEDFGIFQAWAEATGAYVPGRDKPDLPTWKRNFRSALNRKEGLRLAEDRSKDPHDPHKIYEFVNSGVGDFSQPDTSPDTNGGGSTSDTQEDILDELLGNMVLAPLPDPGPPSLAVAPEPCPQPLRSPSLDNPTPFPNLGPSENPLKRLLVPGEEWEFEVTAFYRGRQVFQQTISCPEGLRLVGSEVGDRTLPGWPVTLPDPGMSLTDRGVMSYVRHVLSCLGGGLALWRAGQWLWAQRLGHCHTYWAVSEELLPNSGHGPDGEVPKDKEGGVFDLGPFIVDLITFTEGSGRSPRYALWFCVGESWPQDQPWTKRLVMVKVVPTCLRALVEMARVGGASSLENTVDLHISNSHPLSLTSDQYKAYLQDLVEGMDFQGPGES
Molecule | target | assay | system | conditions | scale | endpoint | result
GCCTAGCACTTAGGACTGGACAGTGGGTTAGTGCTAGTCTTGATTCGCTTGACGCTGCTG | IRF3 S386D/S396D/S398D/S402D/T404D/S405D full length, phosphomimetic | protein-binding microarray | double-stranded DNA, one strand shown, in vitro | 2540 nM top, 60-bp whole probe, added: salmon DNA 0.4 mg/ml | reference: random background probes, higher = stronger binding | fitted relative affinity | -0.715 z-score
PhoQ, residues 284 288 289 292 302 303 AGGCYF | PhoP, residues 12 14 15 18 19 LWHCS (Escherichia coli, UniProt P23836) | Sort-seq, refers to: YFP reporter | E. coli | PhoQ-PhoP variant library, added: 10 µM Mg2+ | reference: high Mg2+ state, higher = stronger signaling | fold induction | 19.3 and 9.1
GCCTAGCACTTAGGTTTCGACTATCGCTTAGTGCTAGTCTTGATTCGCTTGACGCTGCTG | Interferon regulatory factor 7, full length, phosphomimetic (IRF7, Homo sapiens, UniProt Q92985, residues 1-503, S471D/S472D/S475D/S476D/S477D/S483D/S484D/S487D) | protein-binding microarray | double-stranded DNA, one strand shown, in vitro | 2200 nM top, 60-bp whole probe, added: salmon DNA 0.4 mg/ml | reference: random background probes, higher = stronger binding | fitted relative affinity | 3.05 z-score
GCCTAGCACGACGATCTCAGTTTCCAGACGTGCTAGGTCTTGATTCGCTTGACGCTGCTG | Interferon regulatory factor 5, full length, phosphomimetic (IRF5, Homo sapiens, UniProt Q13568-2, residues 1-514, K96S/S451D/S453D/S456D/S462D) | protein-binding microarray | double-stranded DNA, one strand shown, in vitro | 250 nM, 60-bp whole probe, added: salmon DNA 0.4 mg/ml | reference: random background probes, higher = stronger binding | log fluorescence | 0.201 z-score
GCCTAGCACTTAGGTATCGACTCTCGGTTAGTGCTAGTCTTGATTCGCTTGACGCTGCTG | IRF3 S386D/S396D/S398D/S402D/T404D/S405D full length, phosphomimetic | protein-binding microarray | double-stranded DNA, one strand shown, in vitro | 2540 nM top, 60-bp whole probe, added: salmon DNA 0.4 mg/ml | reference: random background probes, higher = stronger binding | fitted relative affinity | 0.882 z-score

Repeated from above (set 2):
Sequence | E-score
CGTAGACA | -0.0406
ATGGCCAC | -0.212
